Published values collected from several papers.
Compare with care: the assays were run in different laboratories. ± gives the spread as reported.

Molecule | test | system | conditions | scale | endpoint | result
NC(=O)CC[C@@H]1NC(=O)[C@H](Cc2ccccc2)NC(=O)[C@H](Cc2ccc(O)cc2)NC(=O)CCSSC[C@@H](C(=O)N2CCC[C@H]2C(=O)N[C@H](CCCN=C(N)N)C(=O)NCC(N)=O)NC(=O)[C@H](CC(N)=O)NC1=O | UPLC-MS/MS | processed plasma extract | 156.23 pg/mL, 24 h | – | reinjection stability | 101%
CCCOc1ccc([C@H]2CNC(=O)N2c2ccc3[nH]cnc3c2)cc1 | – | elderly human volunteers fasted, plasma | oral capsule, 300 mg twice daily, day 7, geometric mean | – | effective half-life | 2.85 h
CC[C@H](C)[C@H](NC(=O)[C@H](CCCNC(=N)N)NC(=O)[C@@H]1CCCN1C(C)=O)C(=O)N[C@@H](CC(=O)O)C(=O)N[C@H](C(=O)N[C@@H](CCCNC(=N)N)C(=O)N[C@H](C(=O)N[C@@H](CC(=O)O)C(=O)N1CCC[C@H]1C(N)=O)[C@@H](C)CC)[C@@H](C)CC | rotational rheometry | 2% w/v aqueous solution | shear rate range 1-1000 s^-1 | – | viscosity | 1250 ± 26.4 Pa·s
O=C1N=C(N2CCOCC2)CN1c1ccc(Cl)cc1 | – | beagle dog, female, plasma | oral, 30 mg/kg, tablets, fed | – | Cmax | 17700 ng/mL
CC(C)=CCC/C(C)=C/CC/C(C)=C/COP(=O)(O)OP(=O)(O)OCc1ccccc1[N+](=O)[O-] | – | 25 mM NH4HCO3 | 0.1 mM, irradiation 350 nm | – | uncaging quantum efficiency | 0.7 mol/einstein
O=C(O)COC[C@H]1CC[C@H](COC(=O)N(c2ccccc2)c2ccc(Cl)cc2)CC1 | – | human | oral, 50 µg once daily, steady state | – | effective half-life | 18.4 h
O=C(Cc1cccc(OC(F)(F)F)c1)Nc1ccc(CCCCc2nnc(NC(=O)Cc3ccccn3)s2)nn1 | – | human | oral, 1000 mg twice daily, fed, steady state, cycle 1 day 15, median | – | Cmin | 147 ng/mL
CC(C)C[C@H]1C(=O)N2CCC[C@H]2[C@]2(O)O[C@](NC(=O)[C@@H]3C=C4c5cccc6[nH]c(Br)c(c56)C[C@H]4N(C)C3)(C(C)C)C(=O)N12 | – | male Sprague-Dawley rats, plasma | intravenous, 0.1 mg/kg, added: DAL 1.7 mg/kg plus HAL 0.7 mg/kg | – | clearance | 3.05 ± 0.433 mL/min/kg
C[C@@H](O)[C@H]1C(=O)N2C(C(=O)O)=C(S[C@@H]3CN[C@H](C(=O)N(C)C)C3)[C@H](C)[C@H]12 | microdialysis | pig, Danish Landrace, subcutaneous adipose tissue | intravenous, 1000 mg over 10 min, 450 min dosing interval, added: 2.0 µg/mL MIC | baseline: dosing interval | time above MIC | 40%
O=C(Nc1ccc(OC(F)(F)F)cc1)N[C@H]1CC[C@H](Oc2ccc(C(=O)O)cc2)CC1 | – | mares, plasma | intravenous, 0.3 mg/kg | – | Vss | 0.956 ± 0.096 L/kg
C[C@]12CC[C@@H]3c4ccc(O)cc4C[C@@H](CCCCCCCCC[S+]([O-])CCCC(F)(F)C(F)(F)F)[C@H]3[C@@H]1CC[C@@H]2O (stereo partly drawn) | – | patients, plasma | intramuscular, 500 mg, inavolisib palbociclib fulvestrant arm | – | steady-state Cmin | 13.3 ng/mL
Cn1c(-c2ccc(C(N)=O)cc2F)nnc1C(C)(C)Oc1c(F)cc(Cl)cc1F | – | healthy young Japanese subjects, plasma | oral, 50 mg once daily, day 18, 14 days dosing | – | Tmax median | 3.02 h
Cc1nc(Nc2ncc(C(=O)Nc3c(C)cccc3Cl)s2)cc(N2CCN(CCO)CC2)n1 | – | C57BL/6 mouse, male, Abcc4 knock-out, spleen | oral, 10 mg/kg, 5 min | – | concentration | 26.7 ± 7.51 ng/g
CCCC[C@H](NC(C)=O)C(=O)N[C@H]1CCC(=O)NC[C@@H](C(=O)N[C@@H](Cc2c[nH]c3ccccc23)C(N)=O)NC(=O)[C@H](CCCNC(=N)N)NC(=O)[C@@H](Cc2ccccc2)NC(=O)[C@H](Cc2c[nH]cn2)NC1=O | – | CD Sprague-Dawley rat, male, plasma | subcutaneous, 1.0 mg/kg/day, day 28 | – | Cmax | 594 ng/mL
CCN(CC)CCNC(=O)c1ccc([18F])cc1 | HPLC | saline | up to six hours, room temperature, 2.5 mCi/mL | – | radiochemical purity | > 95%
O=C1Nc2c(C(=O)O)ccnc2N(C2CC2)c2ncccc21 | – | olive baboon (Papio anubis), non-pregnant, serum | oral, 5 mg/kg of nevirapine, solution, single dose | – | AUC(0-8 h) | 526 ± 6.59 ng·h/mL
C#Cc1c(F)ccc2cc(O)cc(-c3ncc4c(N5CC6CCC(C5)N6)nc(OC[C@@]56CCCN5C[C@H](F)C6)nc4c3F)c12 | – | female Balb/c nude mouse, tumour model | oral, 126 mg/kg twice daily of prodrug, 8 h after last dose | – | tumour concentration | 2440 ng/g

Molecule | test | system | conditions | scale | endpoint | result
O=C1CN(/N=C/c2ccc(-c3ccc([N+](=O)[O-])cc3)o2)C(O)=N1 | – | Sprague-Dawley rat, male, blood | oral, 100 mg/kg, 24 h | – | ALT | 42.4 ± 5 U/L
COc1nnc2ccc(N3CCC(c4ccc(OCCN5CCN(C)C(=O)[C@H]5C)cc4)CC3)nn12 | – | Han Wistar rat, plasma | oral | – | clearance | 2.5 mL/min/kg
CNC(=O)c1ccc(-c2cnc3ncc(Cc4ccc5ncccc5c4)n3n2)cc1F | – | human, mild hepatic impairment (Child-Pugh A), plasma | oral, 200 mg single dose | – | half-life (geometric mean) | 5.37 h
CS/C(S)=N/CCCC[S+](C)[O-] (racemic) | RT-PCR, measured: Cyp19a1 | rat, liver | oral gavage, 200 mg/kg, dosed for four days | baseline: vehicle | mRNA fold change | 0.413
Cc1cc(Nc2ncc(Cl)c(Nc3ccccc3S(=O)(=O)C(C)C)n2)c(OC(C)C)cc1C1CCNCC1 | measured: total drug | patients, plasma | oral, 750 or 450 mg/day, 23.7 h, arithmetic mean | – | Css,min | 936 nM
COc1cc2c(cc1OC)CN(CCc1ccc(NC(=O)c3cccc4c(=O)c5cccc(OC)c5[nH]c34)cc1)CC2 | – | Sprague Dawley rat | intravenous infusion, dose not given, 4 h | baseline: infusion over published oral doses | plasma exposure ratio | 10
Oc1ccc(/C=C/c2ccc3ccccc3c2)cc1O | – | water | aggregation above range | – | linear absorbance range | ≤ 10 µM
CCCC[C@@H]1NC(=O)[C@@H](NC(=O)[C@H](CCC(=O)O)NC(=O)CNC(=O)CN2CCN(CC(=O)O)CCN(CC(=O)O)CCN(CC(=O)O)CC2)CCCCNC(=O)C[C@@H](C(N)=O)NC(=O)[C@H](C(C)C)NC(=O)[C@@H]2CCCN2C(=O)[C@H](CCCNC(=N)N)NC(=O)CNC(=O)[C@H](Cc2c[nH]c3ccccc23)NC(=O)[C@H](CCCNC(=N)N)NC(=O)[C@@H](Cc2ccccc2)NC(=O)[C@H](Cc2c[nH]cn2)NC(=O)[C@H](CCC(=O)O)NC1=O [indium-111 labelled] | – | C57 mice, B16/F10 lung metastatic melanoma, brain | intravenous, 0.037 MBq, 2 h | – | tissue uptake | 0.01 ± 0.01 %ID/g
C[C@]12CC[C@@H]3c4ccc(O)cc4CC[C@H]3[C@@H]1C[C@@H](O)[C@@H]2O | GC-MS | breast cancer women on NSAI, serum | vaginal, 0.03 mg daily, 1 h, day 28 | – | minimum serum concentration | 0 ng/mL
O=C(O)C(F)(F)c1ccccc1Nc1c(Cl)cc(F)cc1Cl | glucuronidation | human liver microsomes | 30 min, added: UDPGA | – | remaining compound | 105 ± 1.5%
Nc1nc2c(nc(Sc3ccc(Cl)cc3)n2[C@@H]2O[C@@H]3CO[P@@](=O)(S)O[C@H]3[C@H]2O)c(=O)[nH]1 | eating, drinking, motor activity | rat | intrathecal, dose not given | baseline: control | behavioural abnormalities | no effect
[2H]C([2H])([2H])Oc1cc2c(cc1OC([2H])([2H])[2H])C1CC(=O)C(CC(C)C)CN1CC2 (stereo not drawn) | measured: total (α+β)-HTBZ | human, fasted | oral, 15 mg single dose | baseline: tetrabenazine 25 mg fasted | geometric mean ratio AUCinf | 115%
Oc1ccc(-c2nc(-c3ccc(Oc4ccc(C(F)(F)F)cc4)cc3)no2)cc1 | – | ICR mice, plasma | intravenous, 50 mg/kg | – | initial half-life | 3.5 min
Cc1cc(C)c(C#N)c(SCC(=O)c2cccs2)n1 | metabolic stability | human, liver microsomes | 0.5 µM, pH 7.4 | – | microsomal CLint | 758 µL/min/mg
acyl ghrelin (human) | – | mouse, wild type, hypothalamus | intravenous, 10 min | – | brain/serum ratio | 6.83 µL/g
CC(=O)c1cc(C(=O)N[C@@H](C)Cn2ccc(-c3ccc(C#N)c(Cl)c3)n2)[nH]n1 | – | human | oral, 600 mg twice daily, with food | – | effective half-life | 14.1 h

Repeated from above:
Molecule | test | system | conditions | scale | endpoint | result
C[C@]12CC[C@@H]3c4ccc(O)cc4CC[C@H]3[C@@H]1C[C@@H](O)[C@@H]2O | GC-MS | breast cancer women on NSAI, serum | vaginal, 0.03 mg daily, 1 h, day 28 | – | minimum serum concentration | 0 ng/mL
Cc1cc(Nc2ncc(Cl)c(Nc3ccccc3S(=O)(=O)C(C)C)n2)c(OC(C)C)cc1C1CCNCC1 | measured: total drug | patients, plasma | oral, 750 or 450 mg/day, 23.7 h, arithmetic mean | – | Css,min | 936 nM
CCCC[C@@H]1NC(=O)[C@@H](NC(=O)[C@H](CCC(=O)O)NC(=O)CNC(=O)CN2CCN(CC(=O)O)CCN(CC(=O)O)CCN(CC(=O)O)CC2)CCCCNC(=O)C[C@@H](C(N)=O)NC(=O)[C@H](C(C)C)NC(=O)[C@@H]2CCCN2C(=O)[C@H](CCCNC(=N)N)NC(=O)CNC(=O)[C@H](Cc2c[nH]c3ccccc23)NC(=O)[C@H](CCCNC(=N)N)NC(=O)[C@@H](Cc2ccccc2)NC(=O)[C@H](Cc2c[nH]cn2)NC(=O)[C@H](CCC(=O)O)NC1=O [indium-111 labelled] | – | C57 mice, B16/F10 lung metastatic melanoma, brain | intravenous, 0.037 MBq, 2 h | – | tissue uptake | 0.01 ± 0.01 %ID/g
Cc1cc(C)c(C#N)c(SCC(=O)c2cccs2)n1 | metabolic stability | human, liver microsomes | 0.5 µM, pH 7.4 | – | microsomal CLint | 758 µL/min/mg
CNC(=O)c1ccc(-c2cnc3ncc(Cc4ccc5ncccc5c4)n3n2)cc1F | – | human, mild hepatic impairment (Child-Pugh A), plasma | oral, 200 mg single dose | – | half-life (geometric mean) | 5.37 h
